{"sequences": {"note": "The chains behind the UniProt entries cited, without tags or fusion partners. Residues count along the entry.", "UniProt Q5U3Y7, whole entry": "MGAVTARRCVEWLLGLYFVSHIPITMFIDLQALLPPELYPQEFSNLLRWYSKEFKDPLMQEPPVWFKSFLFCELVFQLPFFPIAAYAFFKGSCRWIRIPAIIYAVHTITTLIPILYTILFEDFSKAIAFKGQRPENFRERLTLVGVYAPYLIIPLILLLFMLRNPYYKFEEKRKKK", "UniProt P42574, whole entry, looked up": "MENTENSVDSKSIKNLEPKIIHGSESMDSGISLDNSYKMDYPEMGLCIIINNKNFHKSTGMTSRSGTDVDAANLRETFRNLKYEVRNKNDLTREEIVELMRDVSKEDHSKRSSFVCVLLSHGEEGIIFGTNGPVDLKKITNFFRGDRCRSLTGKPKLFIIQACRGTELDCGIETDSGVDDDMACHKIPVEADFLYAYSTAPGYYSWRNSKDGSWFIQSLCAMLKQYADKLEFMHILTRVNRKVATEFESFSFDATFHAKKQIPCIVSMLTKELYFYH", "UniProt P41145, whole entry": "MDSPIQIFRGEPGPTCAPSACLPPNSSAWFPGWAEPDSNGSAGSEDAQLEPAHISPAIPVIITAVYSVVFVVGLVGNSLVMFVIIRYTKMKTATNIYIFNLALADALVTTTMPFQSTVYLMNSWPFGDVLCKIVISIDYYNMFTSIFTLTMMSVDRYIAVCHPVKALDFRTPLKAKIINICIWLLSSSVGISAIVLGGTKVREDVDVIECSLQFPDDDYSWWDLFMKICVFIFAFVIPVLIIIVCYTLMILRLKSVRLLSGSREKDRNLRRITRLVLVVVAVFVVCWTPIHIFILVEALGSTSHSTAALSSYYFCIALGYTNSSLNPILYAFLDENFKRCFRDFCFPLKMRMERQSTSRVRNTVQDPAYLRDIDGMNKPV", "UniProt Q6ZMT4, 92-488 limits assumed": "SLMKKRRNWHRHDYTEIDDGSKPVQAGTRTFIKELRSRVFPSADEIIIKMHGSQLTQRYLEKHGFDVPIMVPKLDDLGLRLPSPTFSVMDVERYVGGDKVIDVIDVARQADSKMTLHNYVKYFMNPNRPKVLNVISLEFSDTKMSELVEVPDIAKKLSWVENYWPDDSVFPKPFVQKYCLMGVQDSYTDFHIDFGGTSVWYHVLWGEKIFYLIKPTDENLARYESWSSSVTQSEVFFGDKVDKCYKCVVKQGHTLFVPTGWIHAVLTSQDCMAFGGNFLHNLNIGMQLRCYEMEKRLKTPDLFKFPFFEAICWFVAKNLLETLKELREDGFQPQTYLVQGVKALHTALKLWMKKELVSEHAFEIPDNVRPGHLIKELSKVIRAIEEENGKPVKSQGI", "UniProt Q9Y251, whole entry, looked up": "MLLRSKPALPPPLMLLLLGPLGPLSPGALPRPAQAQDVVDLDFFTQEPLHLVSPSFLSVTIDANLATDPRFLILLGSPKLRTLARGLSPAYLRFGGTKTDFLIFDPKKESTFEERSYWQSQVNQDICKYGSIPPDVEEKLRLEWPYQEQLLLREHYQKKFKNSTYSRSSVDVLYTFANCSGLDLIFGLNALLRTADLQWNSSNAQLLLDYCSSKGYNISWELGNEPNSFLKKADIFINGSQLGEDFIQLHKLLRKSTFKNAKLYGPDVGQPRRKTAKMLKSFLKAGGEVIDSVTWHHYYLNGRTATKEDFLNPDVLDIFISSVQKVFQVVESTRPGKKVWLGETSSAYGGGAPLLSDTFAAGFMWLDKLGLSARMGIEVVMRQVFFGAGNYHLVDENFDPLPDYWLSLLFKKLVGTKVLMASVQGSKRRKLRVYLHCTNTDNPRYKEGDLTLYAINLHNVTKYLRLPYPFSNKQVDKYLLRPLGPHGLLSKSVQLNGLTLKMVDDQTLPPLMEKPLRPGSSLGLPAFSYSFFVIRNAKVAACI", "UniProt Q14500, whole entry": "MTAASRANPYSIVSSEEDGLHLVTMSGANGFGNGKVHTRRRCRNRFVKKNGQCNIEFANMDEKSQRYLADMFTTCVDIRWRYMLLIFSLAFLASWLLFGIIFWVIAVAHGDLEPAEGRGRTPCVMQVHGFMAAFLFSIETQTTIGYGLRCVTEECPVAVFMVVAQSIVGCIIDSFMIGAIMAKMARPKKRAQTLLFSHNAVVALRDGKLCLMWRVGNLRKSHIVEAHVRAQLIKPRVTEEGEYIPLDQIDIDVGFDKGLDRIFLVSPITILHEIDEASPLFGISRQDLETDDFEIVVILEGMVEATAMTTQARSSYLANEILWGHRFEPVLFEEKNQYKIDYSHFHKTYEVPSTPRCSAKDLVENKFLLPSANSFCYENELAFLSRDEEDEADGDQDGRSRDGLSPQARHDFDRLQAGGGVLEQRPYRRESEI", "UniProt P21554, whole entry": "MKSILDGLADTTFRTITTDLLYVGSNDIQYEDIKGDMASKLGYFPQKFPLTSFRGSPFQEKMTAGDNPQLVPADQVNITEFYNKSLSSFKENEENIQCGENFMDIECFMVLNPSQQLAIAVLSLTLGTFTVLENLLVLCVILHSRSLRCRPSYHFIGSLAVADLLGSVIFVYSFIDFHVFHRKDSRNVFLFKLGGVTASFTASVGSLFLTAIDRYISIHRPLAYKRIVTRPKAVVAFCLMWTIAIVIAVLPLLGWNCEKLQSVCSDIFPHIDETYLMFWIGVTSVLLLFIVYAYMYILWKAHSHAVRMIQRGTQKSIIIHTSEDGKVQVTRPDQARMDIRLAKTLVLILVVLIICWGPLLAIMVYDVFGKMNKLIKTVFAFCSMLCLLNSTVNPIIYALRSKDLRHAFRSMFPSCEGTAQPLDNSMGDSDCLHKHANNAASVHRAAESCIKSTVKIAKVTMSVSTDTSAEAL"}, "data": "Experimental data collected from several papers", "Tmem97": "Sigma intracellular receptor 2 (Tmem97, Rattus norvegicus, UniProt Q5U3Y7)", "Oprk1": "Kappa-type opioid receptor (Oprk1, Mus musculus, UniProt P33534)", "note": "Protocols differ between the studies behind these lines. Numbers after ± are the reported error."}
{"Structure (SMILES)": "[N-]=[N+]=CC(=O)[C@H](Cc1cccc([N+](=O)[O-])c1)NC(=O)OCc1ccccc1", "tested on": "Caspase-3 (CASP3, Homo sapiens, UniProt P42574)", "how to read": "baseline: IC50 caspase-3 over IC50 streptopain", "measurement": "selectivity ratio", "value": "> 21 fold"}
{"Structure (SMILES)": "NC[C@@H](NC[C@@H]1CCCN1C[C@@H](CO)NC[C@@H](NCCC1CC2CCC1C2)c1ccccc1)c1ccccc1 (stereo partly drawn)", "tested on": "Klebsiella pneumoniae", "test": "bacterial growth", "conditions": "16 µM, fold shift of IC90, added: amikacin", "measurement": "potentiation of amikacin", "value": "2.3 fold"}
{"Structure (SMILES)": "NCCNCCSc1ccccc1", "system": "n-octanol/phosphate buffer", "conditions": "10 µg/mL, pH 7.4", "measurement": "partition coefficient", "value": "0.23 ± 0.04"}
{"Structure (SMILES)": "COc1ccc(CN[C@@H]2CO[C@H](C(c3ccccc3)c3ccccc3)C[C@H]2O)cc1", "tested on": "Kappa-type opioid receptor (OPRK1, Homo sapiens, UniProt P41145)", "test": "radioligand binding", "conditions": "10 µM, added: [3H]bremazocine", "measurement": "inhibition", "value": "54.3%"}
{"Structure (SMILES)": "COc1cc2c(N(C)C)nc(NCCCN(C)C)nc2cc1OCCCCCN", "tested on": "Lysine-specific demethylase 7A, Jumonji domain (KDM7A, Homo sapiens, UniProt Q6ZMT4)", "test": "enzyme activity", "how to read": "baseline: apparent Ki KDM7A over EHMT1", "measurement": "selectivity ratio", "value": 35}
{"Structure (SMILES)": "O=C(c1ccc(Br)cc1)C1CCN([C@@H]2Cc3ccccc3C[C@H]2O)CC1 (relative stereo)", "tested on": "Tmem97", "test": "binding", "how to read": "baseline: Ki sigma-2 over Ki VAChT", "measurement": "selectivity ratio", "value": 2370}
{"Structure (SMILES)": "O=C(c1ccc(O)c(Sc2ccccc2)c1)N1Cc2ccccc2C1", "tested on": "Heat shock protein HSP 90-alpha (HSP90AA1, Homo sapiens, UniProt P07900)", "test": "fluorescence polarization", "conditions": "added: FITC-geldanamycin", "how to read": "baseline: IC50 Hsp90beta over Hsp90alpha", "measurement": "selectivity ratio", "value": "> 20 fold"}
{"Structure (SMILES)": "O=C([C@H]1O[C@H](O[C@H]2[C@H](O[C@@H]3O[C@H](C(=O)N4CCN(c5ncccn5)CC4)[C@@H](O[C@H]4O[C@@H](CNS(=O)(=O)O)[C@@H](OCc5ccc6ccccc6c5)[C@H](OCc5ccc6ccccc6c5)[C@H]4NS(=O)(=O)O)[C@H]3OCc3ccc4ccccc4c3)[C@@H](OCc3ccc4ccccc4c3)[C@H](NS(=O)(=O)O)C[C@@H]2NS(=O)(=O)O)[C@H](NS(=O)(=O)O)[C@@H](OCc2ccc3ccccc3c2)[C@@H]1OCc1ccc2ccccc2c1)N1CCN(c2ncccn2)CC1", "tested on": "Heparanase (HPSE, Homo sapiens, UniProt Q9Y251)", "test": "TR-FRET", "how to read": "baseline: PF4 IC50 over heparanase IC50", "measurement": "selectivity ratio", "value": "> 100 fold"}
{"Structure (SMILES)": "CC(C)C[C@@H](NC(=O)[C@H](NC(=O)[C@H]1CCCN1)[C@H](C)O)C(=O)N[C@H](Cc1c[nH]cn1)C(=O)N[C@@H](C(=O)N[C@H](Cc1c[nH]cn1)C(=O)N[C@H](CC(N)=O)C(=O)N[C@H](CCCNC(=N)N)C(=O)N[C@H](CCCNC(=N)N)C(=O)N[C@H](CCCNC(=N)N)C(=O)N[C@H](CCCNC(=N)N)C(=O)N[C@H](CCCNC(=N)N)C(N)=O)[C@H](C)O", "test": "adverse events, phase I single ascending dose", "system": "healthy male subjects", "conditions": "36 mg, grade 2", "measurement": "incidence of headache", "value": "16.7%"}
{"Structure (SMILES)": "COCCCNc1cc(C(=O)NC2CC3CCC(C2)N3c2ccc(C(=O)NCc3ccccc3)cn2)ccc1C(N)=O (stereo not drawn)", "tested on": "Hsp90, Plasmodium falciparum", "how to read": "baseline: human Hsp90 Ki over P. falciparum Hsp90 Ki", "measurement": "selectivity ratio", "value": "9.6 fold"}
{"Structure (SMILES)": "CC(CCN[C@H](CN[C@H](CO)CN1CCC[C@H]1CN[C@H](CN)c1ccccc1)c1ccccc1)c1ccccc1 (stereo partly drawn)", "tested on": "Escherichia coli", "test": "bacterial growth", "conditions": "24 µM, fold shift of IC50, added: amikacin", "measurement": "potentiation of amikacin", "value": "7.9 fold"}
{"Structure (SMILES)": "N#Cc1cc(C(=O)N[C@@H]2CC[C@@]3(O)[C@H]4Cc5ccc(O)c6c5[C@@]3(CCN4CC3CC3)[C@H]2O6)ccn1", "tested on": "Oprk1", "test": "radioligand binding", "system": "CHO", "conditions": "added: [3H]diprenorphine", "how to read": "baseline: Ki δ over Ki κ", "measurement": "selectivity ratio", "value": 579}
{"Structure (SMILES)": "CC1CCN(Cc2cc(Cl)c3cccnc3c2O)CC1", "tested on": "KCNJ12 (Homo sapiens, UniProt Q14500)", "test": "inhibitor, thallium flux", "how to read": "baseline: Kir7.1 over KCNJ12", "measurement": "selectivity ratio", "value": "> 7 fold"}
{"Structure (SMILES)": "O=C(NC1CCN(c2ncnc3c2nc(-c2ccccc2Cl)n3-c2ccc(Cl)cc2)CC1)C1CCCCC1", "tested on": "Cannabinoid receptor 1 (CNR1, Homo sapiens, UniProt P21554)", "test": "binding, radioligand displacement", "system": "CHO cell membranes", "conditions": "added: [3H]CP55940", "how to read": "baseline: Ki CB2 over Ki CB1", "measurement": "selectivity ratio", "value": 250}
{"Structure (SMILES)": "O=C(N[C@@H]1CC[C@@]2(O)[C@H]3Cc4ccc(O)c5c4[C@@]2(CCN3CC2CC2)[C@H]1O5)c1ccnc(Cl)c1", "tested on": "Oprk1", "test": "radioligand binding", "system": "CHO cell membranes", "conditions": "added: [3H]diprenorphine", "how to read": "baseline: Ki mu receptor over Ki kappa receptor", "measurement": "selectivity ratio", "value": 0.67}
{"Structure (SMILES)": "O=C(c1ccccc1)C1CCN([C@@H]2Cc3ccccc3C[C@H]2O)CC1 (relative stereo)", "tested on": "Tmem97", "test": "binding", "how to read": "baseline: Ki sigma-2 over Ki VAChT", "measurement": "selectivity ratio", "value": 74.4}
{"Structure (SMILES)": "Cc1cc(C(=O)N[C@@H]2CC[C@@]3(O)[C@H]4Cc5ccc(O)c6c5[C@@]3(CCN4CC3CC3)[C@H]2O6)ccn1", "tested on": "Oprk1", "test": "radioligand binding", "system": "CHO", "conditions": "added: [3H]diprenorphine", "how to read": "baseline: Ki δ over Ki κ", "measurement": "selectivity ratio", "value": 155}
{"Structure (SMILES)": "C[C@H](CS)C(=O)N[C@H](Cc1c[nH]c2ccccc12)C(=O)O", "tested on": "Klebsiella pneumoniae", "system": "VIM-1 producing", "conditions": "25 µM, added: meropenem", "measurement": "MIC of meropenem", "value": "4 µg/mL"}
